Results pooled from the literature.
Parts stem from different laboratories: compare values within a part only.
UniProt Q15418, sequence (whole entry, looked up): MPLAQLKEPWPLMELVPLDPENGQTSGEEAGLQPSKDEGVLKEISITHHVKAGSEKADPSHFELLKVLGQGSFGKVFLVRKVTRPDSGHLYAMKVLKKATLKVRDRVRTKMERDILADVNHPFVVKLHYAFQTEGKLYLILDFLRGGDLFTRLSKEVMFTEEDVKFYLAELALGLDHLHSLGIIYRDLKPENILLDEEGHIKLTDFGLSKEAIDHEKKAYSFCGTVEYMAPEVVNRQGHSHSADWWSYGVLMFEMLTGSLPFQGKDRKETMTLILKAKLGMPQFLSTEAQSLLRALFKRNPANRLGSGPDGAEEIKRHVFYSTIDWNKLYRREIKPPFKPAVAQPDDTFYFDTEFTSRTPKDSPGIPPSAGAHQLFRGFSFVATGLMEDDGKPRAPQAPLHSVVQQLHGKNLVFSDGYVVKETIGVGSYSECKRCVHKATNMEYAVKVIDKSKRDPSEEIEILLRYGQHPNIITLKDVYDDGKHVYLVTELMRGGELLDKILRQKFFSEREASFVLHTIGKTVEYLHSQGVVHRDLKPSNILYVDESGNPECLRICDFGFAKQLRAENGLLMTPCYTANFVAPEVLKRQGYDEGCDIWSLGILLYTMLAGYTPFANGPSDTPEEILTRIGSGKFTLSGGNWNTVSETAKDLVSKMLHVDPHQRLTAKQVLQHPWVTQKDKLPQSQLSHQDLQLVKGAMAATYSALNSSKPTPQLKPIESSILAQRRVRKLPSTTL
UniProt Q9UF33, sequence (whole entry, looked up): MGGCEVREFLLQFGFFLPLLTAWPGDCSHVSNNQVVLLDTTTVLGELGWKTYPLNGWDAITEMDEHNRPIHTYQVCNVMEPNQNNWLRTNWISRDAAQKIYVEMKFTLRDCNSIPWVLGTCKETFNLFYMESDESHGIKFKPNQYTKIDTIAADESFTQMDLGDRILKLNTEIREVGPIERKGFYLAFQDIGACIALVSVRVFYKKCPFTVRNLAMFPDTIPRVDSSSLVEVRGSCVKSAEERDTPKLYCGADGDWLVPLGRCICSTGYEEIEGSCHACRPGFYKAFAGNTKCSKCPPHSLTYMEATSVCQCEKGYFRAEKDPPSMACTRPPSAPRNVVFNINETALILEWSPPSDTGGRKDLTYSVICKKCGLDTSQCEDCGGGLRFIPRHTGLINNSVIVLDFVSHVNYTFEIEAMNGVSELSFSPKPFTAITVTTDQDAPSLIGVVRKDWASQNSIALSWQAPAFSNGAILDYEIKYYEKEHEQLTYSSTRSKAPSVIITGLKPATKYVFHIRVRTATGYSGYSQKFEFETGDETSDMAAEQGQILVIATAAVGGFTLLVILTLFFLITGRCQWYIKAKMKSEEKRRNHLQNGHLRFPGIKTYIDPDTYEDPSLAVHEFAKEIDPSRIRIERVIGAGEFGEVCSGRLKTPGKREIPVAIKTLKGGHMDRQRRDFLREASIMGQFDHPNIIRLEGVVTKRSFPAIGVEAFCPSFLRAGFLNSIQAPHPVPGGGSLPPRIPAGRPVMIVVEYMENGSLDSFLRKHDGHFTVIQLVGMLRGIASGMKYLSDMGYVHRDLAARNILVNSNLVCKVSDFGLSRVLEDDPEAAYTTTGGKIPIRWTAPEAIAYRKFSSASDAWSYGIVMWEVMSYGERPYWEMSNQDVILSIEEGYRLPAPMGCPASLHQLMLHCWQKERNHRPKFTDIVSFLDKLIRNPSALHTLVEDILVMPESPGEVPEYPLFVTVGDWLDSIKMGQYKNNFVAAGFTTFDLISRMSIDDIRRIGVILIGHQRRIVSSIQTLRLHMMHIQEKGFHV
UniProt O14578, sequence (whole entry, looked up): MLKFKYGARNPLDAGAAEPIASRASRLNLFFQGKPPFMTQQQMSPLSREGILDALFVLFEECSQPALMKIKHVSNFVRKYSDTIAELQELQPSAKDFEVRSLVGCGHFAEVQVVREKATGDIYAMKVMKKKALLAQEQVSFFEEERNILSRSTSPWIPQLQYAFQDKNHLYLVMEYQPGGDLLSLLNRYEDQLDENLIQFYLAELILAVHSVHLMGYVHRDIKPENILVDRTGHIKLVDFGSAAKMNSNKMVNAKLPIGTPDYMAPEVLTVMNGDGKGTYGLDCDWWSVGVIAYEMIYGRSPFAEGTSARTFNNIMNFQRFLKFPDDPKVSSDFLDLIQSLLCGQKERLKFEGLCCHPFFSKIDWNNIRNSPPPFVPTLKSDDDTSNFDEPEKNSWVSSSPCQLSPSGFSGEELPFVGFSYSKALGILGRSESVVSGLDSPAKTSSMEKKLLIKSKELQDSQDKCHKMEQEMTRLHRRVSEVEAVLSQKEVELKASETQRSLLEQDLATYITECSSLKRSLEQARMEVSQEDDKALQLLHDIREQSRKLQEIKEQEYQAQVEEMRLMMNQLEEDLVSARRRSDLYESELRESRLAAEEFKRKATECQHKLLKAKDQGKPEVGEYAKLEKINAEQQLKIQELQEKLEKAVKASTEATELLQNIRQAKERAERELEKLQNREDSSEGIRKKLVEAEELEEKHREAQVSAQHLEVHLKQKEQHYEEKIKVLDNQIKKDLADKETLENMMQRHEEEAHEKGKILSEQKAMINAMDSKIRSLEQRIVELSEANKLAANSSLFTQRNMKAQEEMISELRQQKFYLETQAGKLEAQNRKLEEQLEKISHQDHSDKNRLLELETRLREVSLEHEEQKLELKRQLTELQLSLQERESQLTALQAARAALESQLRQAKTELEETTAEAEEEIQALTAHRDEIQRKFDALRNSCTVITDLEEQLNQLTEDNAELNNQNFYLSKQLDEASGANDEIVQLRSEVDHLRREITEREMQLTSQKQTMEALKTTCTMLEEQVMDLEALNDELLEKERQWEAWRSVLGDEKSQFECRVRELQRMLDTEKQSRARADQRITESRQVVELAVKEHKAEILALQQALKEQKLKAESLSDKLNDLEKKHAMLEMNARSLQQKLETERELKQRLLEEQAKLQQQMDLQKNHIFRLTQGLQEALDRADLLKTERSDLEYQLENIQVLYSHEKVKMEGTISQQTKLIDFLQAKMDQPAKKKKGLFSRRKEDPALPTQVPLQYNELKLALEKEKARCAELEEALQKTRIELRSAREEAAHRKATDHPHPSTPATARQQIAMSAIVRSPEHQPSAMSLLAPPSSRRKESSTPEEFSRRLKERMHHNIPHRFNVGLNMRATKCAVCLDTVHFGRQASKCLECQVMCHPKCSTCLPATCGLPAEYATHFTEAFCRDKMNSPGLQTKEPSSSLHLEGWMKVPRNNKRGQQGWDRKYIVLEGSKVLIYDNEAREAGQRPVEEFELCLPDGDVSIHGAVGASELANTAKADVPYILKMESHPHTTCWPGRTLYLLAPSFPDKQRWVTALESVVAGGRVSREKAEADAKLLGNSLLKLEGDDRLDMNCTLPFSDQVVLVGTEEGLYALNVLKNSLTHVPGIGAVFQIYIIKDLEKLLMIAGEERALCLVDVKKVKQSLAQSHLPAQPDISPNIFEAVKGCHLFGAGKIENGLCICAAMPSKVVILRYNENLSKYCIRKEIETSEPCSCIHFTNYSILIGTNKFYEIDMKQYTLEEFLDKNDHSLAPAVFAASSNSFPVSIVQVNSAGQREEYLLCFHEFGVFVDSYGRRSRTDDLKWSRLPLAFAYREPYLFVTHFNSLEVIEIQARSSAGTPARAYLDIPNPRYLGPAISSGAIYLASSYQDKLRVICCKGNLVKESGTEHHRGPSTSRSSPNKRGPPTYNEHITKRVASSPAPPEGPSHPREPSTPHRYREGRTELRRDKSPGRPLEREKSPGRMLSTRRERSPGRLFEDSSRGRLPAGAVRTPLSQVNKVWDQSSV
UniProt Q8IY84, sequence (whole entry, looked up): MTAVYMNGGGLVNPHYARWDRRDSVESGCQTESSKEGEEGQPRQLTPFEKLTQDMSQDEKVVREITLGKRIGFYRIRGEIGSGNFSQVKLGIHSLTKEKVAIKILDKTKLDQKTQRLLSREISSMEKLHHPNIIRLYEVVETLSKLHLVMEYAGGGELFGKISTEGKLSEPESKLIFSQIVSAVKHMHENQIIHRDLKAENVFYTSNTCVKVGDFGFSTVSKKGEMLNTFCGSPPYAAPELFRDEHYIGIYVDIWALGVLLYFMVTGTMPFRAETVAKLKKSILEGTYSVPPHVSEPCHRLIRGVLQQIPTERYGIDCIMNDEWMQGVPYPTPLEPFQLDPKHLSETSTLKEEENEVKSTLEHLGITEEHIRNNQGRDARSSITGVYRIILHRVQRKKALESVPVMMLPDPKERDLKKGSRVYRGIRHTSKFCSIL
UniProt Q16816, sequence (whole entry, looked up): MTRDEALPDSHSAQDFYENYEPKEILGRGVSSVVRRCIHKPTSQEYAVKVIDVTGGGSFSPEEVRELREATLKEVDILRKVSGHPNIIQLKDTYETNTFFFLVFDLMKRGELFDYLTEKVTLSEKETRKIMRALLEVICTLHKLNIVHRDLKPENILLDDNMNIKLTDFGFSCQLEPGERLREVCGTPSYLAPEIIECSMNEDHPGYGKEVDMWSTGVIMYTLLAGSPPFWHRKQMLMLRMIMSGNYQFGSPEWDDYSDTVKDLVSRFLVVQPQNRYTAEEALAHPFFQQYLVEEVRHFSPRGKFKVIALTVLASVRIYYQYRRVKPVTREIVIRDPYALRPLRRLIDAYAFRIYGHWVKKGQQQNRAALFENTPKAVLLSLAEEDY

Block 1
Structure (SMILES): O=C(Nc1ccc(Oc2ccc(F)cc2)cc1)N1CCc2ncccc2[C@H]1c1ccc(F)cc1
Technique: competition with immobilised ligand
Concentration: 1 µM
Endpoint: remaining binding
MAPK15 (Homo sapiens, UniProt Q8TD08); cell-free assay: 94%
PHKG1 (Homo sapiens, UniProt Q16816); cell-free assay: 100%
TIE1 (Homo sapiens, UniProt P35590); cell-free assay: 85%
NIM1K (Homo sapiens, UniProt Q8IY84); cell-free assay: 80%
Tyrosine-protein kinase JAK1, JH1 (JAK1, Homo sapiens, UniProt P23458); cell-free assay: 94%
RPS6KB1 (Homo sapiens, UniProt P23443); cell-free assay: 100%
Ribosomal protein S6 kinase alpha-1, N-terminal kinase domain (RPS6KA1, Homo sapiens, UniProt Q15418); cell-free assay: 79%
EPHA6 (Homo sapiens, UniProt Q9UF33); cell-free assay: 100%
CLK3 (Homo sapiens, UniProt P49761); cell-free assay: 82%
Tyrosine-protein kinase ABL1, non-phosphorylated (ABL1, Homo sapiens, UniProt P00519, Q252H); cell-free assay: 90%
PAK6 (Homo sapiens, UniProt Q9NQU5); cell-free assay: 100%
Ribosomal protein S6 kinase alpha-5, N-terminal kinase domain (RPS6KA5, Homo sapiens, UniProt O75582); cell-free assay: 95%
PRKCH (Homo sapiens, UniProt P24723); cell-free assay: 93%
FGFR3 (Homo sapiens, UniProt P22607, G697C); cell-free assay: 100%
Tyrosine-protein kinase JAK2, JH1 (JAK2, Homo sapiens, UniProt O60674); cell-free assay: 100%
MAP4K4 (Homo sapiens, UniProt O95819); cell-free assay: 100%
EPHA3 (Homo sapiens, UniProt P29320); cell-free assay: 91%
Tyrosine-protein kinase ABL1, phosphorylated (ABL1, Homo sapiens, UniProt P00519, E255K); binding: 100%
PIK3CA (Homo sapiens, UniProt P42336, C420R); cell-free assay: 100%
RET (Homo sapiens, UniProt P07949, V804L); cell-free assay: 95%
MAPK9 (Homo sapiens, UniProt P45984); cell-free assay: 88%
Cyclin-dependent kinase 4, with cyclin D1 (CDK4, Homo sapiens, UniProt P11802); cell-free assay: 100%
Ribosomal protein S6 kinase alpha-1, C-terminal kinase domain (RPS6KA1, Homo sapiens, UniProt Q15418); cell-free assay: 92%
NEK1 (Homo sapiens, UniProt Q96PY6); cell-free assay: 100%
ITK (Homo sapiens, UniProt Q08881); cell-free assay: 96%

Block 2
Cell line: A-375
Concentration: 100 µM
Time: 36 h
Endpoint: viability
NCCCCCC(=O)O: 98.8%
C[N+]1(C)CCCC(OC(=O)C(O)(c2ccccc2)c2ccccc2)C1 (stereo not shown): 113%
NC(=O)NO: 98.1%
NC(=O)N1c2ccccc2CC(=O)c2ccccc21: 40.9%
Cc1cc(C)cc(OCC2CNC(=O)O2)c1 (stereo not shown): 117%
CC(=O)O[C@]1(C(C)=O)CC[C@H]2[C@@H]3C=C(Cl)C4=CC(=O)CC[C@]4(C)[C@H]3CC[C@@]21C: 17.9%
O=c1ccc2ccc(OCCCCN3CCN(c4cccc5sccc45)CC3)cc2[nH]1: 1.34%
COc1ccc2cc(CCC(C)=O)ccc2c1: 97.7%
CC(C)(C(=O)c1cccnc1)c1cccnc1: 106%
CC(=O)[C@@]1(O)CC[C@H]2[C@@H]3CCC4=CC(=O)CC[C@]4(C)[C@H]3CC[C@@]21C: 86.7%
O=C(O)c1cc(-c2ccc(F)cc2F)ccc1O: 92%

Block 3
SMILES: Cc1nc(Nc2ncc(C(=O)Nc3c(C)cccc3Cl)s2)cc(N2CCN(CCO)CC2)n1
Action: inhibitor
Endpoint: inhibition
CIT (Homo sapiens, UniProt O14578); 10 µM: < 50%
TNNI3K (Homo sapiens, UniProt Q59H18); 10 µM: 100%
CAMK2B (Homo sapiens, UniProt Q13554); 10 µM: < 50%
ULK2 (Homo sapiens, UniProt Q8IYT8); 10 µM: < 50%
TLK1 (Homo sapiens, UniProt Q9UKI8); 10 µM: < 50%
CHEK1 (Homo sapiens, UniProt O14757); 10 µM: < 50%
MAP4K3 (Homo sapiens, UniProt Q8IVH8); 10 µM: 98%
CAMK4 (Homo sapiens, UniProt Q16566); 10 µM: < 50%
MET (Homo sapiens, UniProt P08581); 1 µM: < 50%
PRKAA2 (Homo sapiens, UniProt P54646); 1 µM: < 50%
NUAK2 (Homo sapiens, UniProt Q9H093); 1 µM: < 50%

Block 4
Target: Calcium/calmodulin-dependent protein kinase type II subunit alpha (CAMK2A, Homo sapiens, UniProt Q9UQM7)
UniProt Q9UQM7, sequence (whole entry, looked up): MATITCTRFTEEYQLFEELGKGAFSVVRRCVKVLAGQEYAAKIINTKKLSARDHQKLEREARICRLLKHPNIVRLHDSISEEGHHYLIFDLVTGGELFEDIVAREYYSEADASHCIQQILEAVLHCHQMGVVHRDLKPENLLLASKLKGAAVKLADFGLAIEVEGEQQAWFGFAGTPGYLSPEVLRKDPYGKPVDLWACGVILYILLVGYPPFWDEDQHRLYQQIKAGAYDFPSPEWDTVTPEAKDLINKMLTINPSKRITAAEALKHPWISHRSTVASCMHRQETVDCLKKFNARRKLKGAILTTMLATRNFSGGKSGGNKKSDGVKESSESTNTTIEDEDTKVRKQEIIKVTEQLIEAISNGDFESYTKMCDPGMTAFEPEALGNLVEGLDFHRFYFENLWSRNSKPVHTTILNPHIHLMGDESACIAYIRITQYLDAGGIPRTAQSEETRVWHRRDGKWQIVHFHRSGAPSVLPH
Read-out: enzyme activity
Action: inhibitor
Concentration: 10 µM
Endpoint: inhibition
O=C(O)/C=C/c1ccc(O)cc1: -63%
COC(=O)[C@@]12OC[C@]34[C@H]([C@@H](O)[C@@H]1O)[C@@]1(C)CC(=O)C(O)=C(C)[C@@H]1C[C@H]3OC(=O)[C@H](OC(=O)CC(C)C)[C@@H]24: 16%
Cc1c(O)c(=O)ccn1C: -3%
CCCCCC/C=C\CCCCCCCc1cccc(O)c1C(=O)O: -53%
C[C@@H]1C/C=C/C=C/C=C/C=C/[C@H](O[C@@H]2O[C@H](C)[C@@H](O)[C@H](N)[C@@H]2O)C[C@@H]2O[C@](O)(C[C@@H](O)C[C@H]3O[C@@H]3/C=C/C(=O)O1)C[C@H](O)[C@H]2C(=O)O: -19%
COc1cc(C2Oc3ccc([C@H]4Oc5cc(O)cc(O)c5C(=O)[C@@H]4O)cc3OC2CO)ccc1O (stereo partly shown): -76%
C[C@@H]1O[C@@H](OC[C@H]2O[C@@H](OCCc3ccc(O)c(O)c3)[C@H](O)[C@@H](O[C@@H]3O[C@@H](C)[C@H](O)[C@@H](O)[C@H]3O)[C@@H]2OC(=O)/C=C/c2ccc(O)c(O)c2)[C@H](O)[C@H](O)[C@H]1O: -8%
CCOC(=O)n1ccn(C)c1=S: -18%
CC(=O)CCCCn1c(=O)c2c(ncn2C)n(C)c1=O: 2%
Cc1ccc(S(=O)(=O)NC(=O)NN2CCCCCC2)cc1: -11%
CCCCCC1CCCC(=O)O1 (stereo not shown): -16%

Repeated from above (block 1):
Tyrosine-protein kinase JAK2, JH1 (JAK2, Homo sapiens, UniProt O60674); cell-free assay: 100%
PRKCH (Homo sapiens, UniProt P24723); cell-free assay: 93%
RET (Homo sapiens, UniProt P07949, V804L); cell-free assay: 95%
MAPK15 (Homo sapiens, UniProt Q8TD08); cell-free assay: 94%
Tyrosine-protein kinase JAK1, JH1 (JAK1, Homo sapiens, UniProt P23458); cell-free assay: 94%
